# Published values collected from several papers.
# Each numbered part is a random draw from the data of one study; scales do not carry over between parts. Positions count from the first letter of the parent shown.

# Study 1
# Target: RING finger protein unkempt homolog, zinc fingers 1-6, GST-SBP tag (UNK, Homo sapiens, UniProt Q9C0B0, residues 30-357)
# UniProt Q9C0B0, sequence (30-357, looked up): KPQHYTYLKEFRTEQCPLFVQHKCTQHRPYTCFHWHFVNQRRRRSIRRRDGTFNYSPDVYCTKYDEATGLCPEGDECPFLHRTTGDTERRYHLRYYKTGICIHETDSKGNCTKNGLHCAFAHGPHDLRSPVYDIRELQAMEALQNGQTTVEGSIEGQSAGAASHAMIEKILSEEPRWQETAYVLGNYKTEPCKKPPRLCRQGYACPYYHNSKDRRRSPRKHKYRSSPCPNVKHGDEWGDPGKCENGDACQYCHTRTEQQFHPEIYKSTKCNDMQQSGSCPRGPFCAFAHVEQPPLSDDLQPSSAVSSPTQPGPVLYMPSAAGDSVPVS
# Method: RNA Bind-n-Seq
# Form: RNA
# Sample: in vitro
# Tested at: not given
# Notes: RNA with constant flanks, human-mouse chimeric sites, ends assumed
# Relative to: input RNA pool
# Reading: higher = stronger binding
Oligonucleotide,bound/input enrichment [ratio]
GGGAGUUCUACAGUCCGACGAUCACCUCCCCCUCCCGCCUCACCCCACCCCCGCUUUUUGGAAAGUUUUUGGCGUUUCUUUUCCUUCCCCAUACAAAGUGAUUACAGUUUAGAGUCUAUGGGUCUAUCGAUUCACCCUUCGGACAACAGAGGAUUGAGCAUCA,1.32
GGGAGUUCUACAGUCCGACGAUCCCAAUUGUGGAGCAGUACUUGAAGACAAAGAAAAAUUCUAGUCAUUUAAUCAUCAAGUACAUUAGCUGCCGCCUGCUGACACUCAUCAUUAUACUGUUAGCGUGUAUCUACUUGAGCUAUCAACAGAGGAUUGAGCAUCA,0.502
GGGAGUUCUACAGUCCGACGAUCUCCCUGUUGCUGAAUAAAUGGCUUGUAAAGAAGUUUUCCAAGUUGUAAACCCAUGCUGUUAUUAUAGUUGCUGCAAAAUGUUCUUCCUGAUAUUGAUUUUAUUUGUUAACUGAAGGUCUCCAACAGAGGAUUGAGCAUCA,0.358
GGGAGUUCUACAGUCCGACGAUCGCUCCUCCCCGCUCUGCAGCCUGGGGACUUUUGGCAAGGACCAGAAUCCAGCUUUCUUUUAAAACUCUCAGUGUAACUGUAUCCCGUGACAUUUCAUUUUUUUUAAAUAGUGUAUUUUUUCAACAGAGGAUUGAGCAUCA,4.21
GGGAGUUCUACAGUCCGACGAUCCAGUCCCCGUGUCCCAGUGCAGGACGAUGUGAACAAAAACUCAAAGCGGACCCUCUACUGUAGUUGAUGAUUCUCGAAAUGUGCUAUUAUUGUUUGUCUUUUUUUUUUUUUUUUUAAAGACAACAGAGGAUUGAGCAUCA,0.765
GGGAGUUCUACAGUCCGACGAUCACCAUUUUCGCGGUUCAGGCUUUGUGUGUAGUUCACUUACGGUAUUAAAUUAUUAUUCUGCUUAGCUUAAAGUAAGGAUUACAAUUGUUAAAGAGGUUACUGAAUGUUACUCUGAAACUUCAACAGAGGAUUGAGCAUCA,0.805
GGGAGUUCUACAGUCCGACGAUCGCACUUCUCAAAUACUGGCCAAAGACUCACAGUCCAAAAGAAGUAAUGUUCUUAAACGAAUUAGAAGAAAUUUUAGAUGUAAUUGAACCAUCAGAAUUUGUGAAGAUCAUGGAGCCUCUUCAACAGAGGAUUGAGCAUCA,0.915
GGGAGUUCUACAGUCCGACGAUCACUCAGAGAUCCACCUCCCAAAGUGCUGGGAGUAAAGGUGUGGCCACCACACCUAACUUGAUGGAUAUUUUAUAAAGUUAAUAUGAAUCUUCCUGUUCGUCCAGGGAGCAAGAACGGGUUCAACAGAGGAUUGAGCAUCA,0.33
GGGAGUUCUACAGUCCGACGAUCCGCCUGGAUGAGGCGGGUGUUACUGAUGAAGUGCUAGAUUCUGCCAUGCAAGCCUUCCUUCUGGAGGUCAUUGUUAAACAUGGGGAGCCGGCACCUUAUUUAUGUAACAAAGAUCCGUUUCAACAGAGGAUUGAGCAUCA,0.107
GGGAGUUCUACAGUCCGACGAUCGCUGAAAAUGAAGAAGAGGCAGCUGAUGUCUGGUACAACCUGGGGCACAUAGCUGUGGGAAUAGGAGAUACAAAUUUGGCCCACCAAUGCUUCAGGCUGGCCCUGGUCCACAACAACCACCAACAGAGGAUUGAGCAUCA,0.747
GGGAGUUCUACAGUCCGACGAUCAACAGAUUGUCUUUAAGCAUUCCAAGCGAGAAUGCUGGGGUGAUCAUAAUUACCCACGUGCCUUCUGACUGAGCUUUAAUGCUGUUCCAUGUUACAUCUUUCCUUCACUCCAGAAUUGUUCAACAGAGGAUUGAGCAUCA,0.133

# Study 2
# Target: Sal-like protein 4, full length isoform A (SALL4, Homo sapiens, UniProt Q9UJQ4, residues 1-1053)
# UniProt Q9UJQ4, sequence (whole entry, looked up): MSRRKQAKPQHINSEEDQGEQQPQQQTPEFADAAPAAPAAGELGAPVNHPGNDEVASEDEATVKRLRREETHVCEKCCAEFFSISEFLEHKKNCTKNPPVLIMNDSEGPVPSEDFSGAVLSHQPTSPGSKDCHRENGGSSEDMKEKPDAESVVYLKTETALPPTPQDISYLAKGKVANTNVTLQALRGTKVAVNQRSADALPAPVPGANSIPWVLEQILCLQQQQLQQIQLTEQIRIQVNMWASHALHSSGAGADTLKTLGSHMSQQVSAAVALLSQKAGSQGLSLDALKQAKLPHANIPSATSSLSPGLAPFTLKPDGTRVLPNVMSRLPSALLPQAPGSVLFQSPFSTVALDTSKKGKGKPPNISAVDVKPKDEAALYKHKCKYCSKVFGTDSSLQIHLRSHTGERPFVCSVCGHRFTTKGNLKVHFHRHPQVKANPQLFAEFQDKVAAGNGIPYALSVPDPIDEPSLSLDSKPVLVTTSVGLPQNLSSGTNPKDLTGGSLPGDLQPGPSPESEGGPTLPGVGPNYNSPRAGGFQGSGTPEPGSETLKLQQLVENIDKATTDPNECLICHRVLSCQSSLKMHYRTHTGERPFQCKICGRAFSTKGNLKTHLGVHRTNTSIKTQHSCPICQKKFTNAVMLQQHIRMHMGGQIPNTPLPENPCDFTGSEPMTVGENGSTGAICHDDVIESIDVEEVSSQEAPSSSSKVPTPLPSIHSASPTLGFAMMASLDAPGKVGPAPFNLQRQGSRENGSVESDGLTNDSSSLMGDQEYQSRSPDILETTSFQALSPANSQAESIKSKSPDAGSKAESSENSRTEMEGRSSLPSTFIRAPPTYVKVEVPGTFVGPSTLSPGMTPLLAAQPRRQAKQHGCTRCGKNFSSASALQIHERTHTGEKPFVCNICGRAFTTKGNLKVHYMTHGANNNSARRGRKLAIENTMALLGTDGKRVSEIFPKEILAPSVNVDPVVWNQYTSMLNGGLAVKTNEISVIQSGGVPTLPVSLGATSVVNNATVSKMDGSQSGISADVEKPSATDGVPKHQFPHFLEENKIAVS
# Method: universal PBM
# Form: double-stranded DNA, one strand shown
# Sample: in vitro
# Tested at: 600 nM
# Notes: 8-mer, flanks averaged, mean of replicates
# Reading: higher = stronger binding
Oligonucleotide,E-score
CAAGCTTC,-0.0306
TACGGAAA,0.1
ATGGTCCA,-0.155
GCCACCCC,-0.39
TGCTGTAA,0.238
CCGCCCGG,-0.389
GTTCCTAA,0.0162
GCTAATGA,0.0497
AACGGCAT,0.107
AACCCACT,-0.0141
ACTGCAGA,0.0411
GGGCGCTA,-0.318
CACAGGTG,-0.0785
TAATGTGA,0.26
GAGTTGCC,-0.242
CGCCGAGC,-0.319
CGTGAAAG,0.145
TAGGGGCA,-0.113
ATACCAGG,-0.0219
AAGACCGG,-0.312
CAGGATCG,-0.242
AATCACAG,0.0072
ACGCGAAA,-0.014
CGTTCCAG,-0.0506

# Study 3
# Target: Histone acetyltransferase KAT6A, both winged helices, GST fusion (KAT6A, Homo sapiens, UniProt Q92794, residues 1-181)
# Method: protein binding microarray
# Form: double-stranded DNA, one strand shown
# Sample: in vitro
# Tested at: not given
# Notes: 8-mer, flanks averaged, mean of 2 arrays, mostly near background
# Relative to: not given
# Reading: higher = stronger binding
# Residues (chain): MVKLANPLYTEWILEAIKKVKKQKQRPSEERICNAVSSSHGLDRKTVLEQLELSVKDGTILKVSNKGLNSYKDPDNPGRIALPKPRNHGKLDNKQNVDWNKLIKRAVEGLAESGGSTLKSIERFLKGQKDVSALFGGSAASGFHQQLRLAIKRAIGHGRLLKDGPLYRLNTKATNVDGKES
Oligonucleotide,E-score
AATATCAG,-0.2
GCATATGC,0.07
CCACAAAA,-0.11
CGTCTATC,0.0118
AATCAGTC,0.0775
GCTCAACA,0.0339
AACGGTAG,0.113
GCAGCTAC,-0.0955
GCGAGACA,0.00155
CCAAACTC,-0.18
GGTAAGGA,0.011
ACAAGGCC,-0.0886
CCGAGACA,-0.0832
AACACATA,-0.204
CTAGCTTC,0.031
TCATCAAA,0.023
GGAGATAC,0.0464
GAGTCCAA,-0.196
ACACCTAA,-0.117
CAGCCGCC,0.268
ATACAAAC,-0.0512

# Study 4
# Target: CCNA2, cyclin fold, Cln2 fusion (human)
# Method: yeast growth competition, sequencing
# Sample: yeast
# Notes: strong parent motif
# Relative to: not given
# Reading: higher = stronger binding
# Starting sequence: CDKN1B docking peptide (human); PSACRNLFGPVDH
Substitution,normalised enrichment score
PSAERNLFGPVDH [C4E],0.0473
PSACRNLFGPVDK [H13K],4.03
PSAGRNLFGPVDH [C4G],0.649
PSACRNLFGPVRH [D12R],3.72
PSAWRNLFGPVDH [C4W],1.92
SSACRNLFGPVDH [P1S],3.36
PSATRNLFGPVDH [C4T],0.863
PSACRNLFCPVDH [G9C],1.12
PSACRYLFGPVDH [N6Y],0.421
PSACRNLFGPVFH [D12F],3.51
PSHCRNLFGPVDH [A3H],1.83
PSAPRNLFGPVDH [C4P],0.839
PSACCNLFGPVDH [R5C],-0.0591
PSACRNLFGPVQH [D12Q],4.08
PSACRNLFGPTDH [V11T],3.45
PLACRNLFGPVDH [S2L],2.8
PSACFNLFGPVDH [R5F],0.487
PSACRILFGPVDH [N6I],2.05

# Study 5
# Target: Interferon regulatory factor 3, full length, phosphomimetic (IRF3, Homo sapiens, UniProt Q14653, residues 1-427, S386D/S396D/S398D/S402D/T404D/S405D)
# Method: protein-binding microarray
# Form: double-stranded DNA, one strand shown
# Sample: in vitro
# Tested at: 2540 nM top
# Notes: 60-bp whole probe
# Together with: salmon DNA 0.4 mg/ml
# Relative to: random background probes
# Reading: higher = stronger binding
# Constant ends, left off below: GCCTAGCAC … GTCTTGATTCGCTTGACGCTGCTG
# Construct (chain): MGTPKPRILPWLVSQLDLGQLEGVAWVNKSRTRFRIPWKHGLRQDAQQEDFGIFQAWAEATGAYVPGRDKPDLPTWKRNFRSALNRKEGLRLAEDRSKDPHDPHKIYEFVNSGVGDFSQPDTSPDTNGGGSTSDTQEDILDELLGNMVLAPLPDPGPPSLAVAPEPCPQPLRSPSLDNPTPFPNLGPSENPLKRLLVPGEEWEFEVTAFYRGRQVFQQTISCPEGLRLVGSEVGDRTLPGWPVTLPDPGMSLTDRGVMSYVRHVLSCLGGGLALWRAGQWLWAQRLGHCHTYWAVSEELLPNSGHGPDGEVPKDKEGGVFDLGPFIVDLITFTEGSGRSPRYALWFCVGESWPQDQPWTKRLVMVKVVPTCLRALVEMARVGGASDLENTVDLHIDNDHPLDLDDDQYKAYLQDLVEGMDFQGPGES
Oligonucleotide,fitted relative affinity
TTAGAACTGAGACTGCATTAGTGCTAG,-0.468 z-score
TTAGGTCTCGGATTGGGTTAGTGCTAG,0.341 z-score
TCATATCTGTGTTATTAAACTGTGCTA,0.857 z-score
GACGGTTTCCTTTTCATGACGTGCTAG,10.8 z-score
GACGGTTTCGGGACTGGGGACGTGCTA,4.5 z-score
TTTGAGCTCTGTCTGGGATGGTGCTAG,-0.722 z-score
TTAGGAATGCTTCTCCTTTAGTGCTAG,0.13 z-score
GACGATATCGGTTATCGAGACGTGCTA,1.11 z-score
TCAAACTTCCCAATGGTACTGTGCTAG,0.339 z-score
CCCATGCTGGATGAAGTACAGTGCTAG,-0.0685 z-score
TCAGGTTTCCAATCAGCACTGTGCTAG,5.91 z-score
GACGATTTCAGTTCCGCGACGTGCTAG,2.78 z-score
TATGGTTTTTTTTTAATTGAGTGCTAG,1.15 z-score
TTAGAACTGGGGTATCGATTTGTGCTA,-0.00202 z-score
TTTGGTATCGGTCTCGGTTAGTGCTAG,5.09 z-score
GACGATTTCGGGTTTCGTGACGTGCTA,2.53 z-score
TTAGGACTGGACACTGGCTTAGTGCTA,-0.919 z-score
GACGCTATCCTTATCCTGACGTGCTAG,2.38 z-score
TATTGTTTCCTTCCTCTTTTGTGCTAG,7.25 z-score
GACGATTTCATTTCCGAGACGTGCTAG,3.23 z-score
GACGGACTGGACTTTCAGGACGTGCTA,-0.142 z-score
ATAGATTTCAGTCTCGATTAGTGCTAG,2.55 z-score
TTAGATATCGTGACTGGATTAGTGCTA,-0.354 z-score
TTAGGACTGTACTTTCGGTTAGTGCTA,1.92 z-score
TCAAGTCTCAAAATTAGACTGTGCTAG,0.08 z-score

# For quick reference, copied from above (study 4):
Substitution,normalised enrichment score
PSHCRNLFGPVDH [A3H],1.83
PSACRNLFCPVDH [G9C],1.12
PSACRILFGPVDH [N6I],2.05
PSAGRNLFGPVDH [C4G],0.649
PSAPRNLFGPVDH [C4P],0.839
PSATRNLFGPVDH [C4T],0.863
PSAERNLFGPVDH [C4E],0.0473
PSAWRNLFGPVDH [C4W],1.92
PSACRNLFGPVRH [D12R],3.72
PSACFNLFGPVDH [R5F],0.487
PLACRNLFGPVDH [S2L],2.8
PSACRNLFGPVQH [D12Q],4.08
PSACCNLFGPVDH [R5C],-0.0591
